Assay results pooled from the literature.
± marks the error that the study gave.

Structure (SMILES) | method | matrix | pH | temperature | logP
COCCOCCOCCOc1ccc(/C=C/c2c(I)c(C)c3n2[B-](F)(F)[N+]2=C(C)C(I)=C(C)C2=C3c2cc(OC)cc(OC)c2)cc1 |  | octanol/HEPES buffer | pH 7.4 | room temperature | 0.72
C1=CCCC=CCC1.C1=CCCC=CCC1.[Cl][Hg-]([Cl])[Cl].[Cl][Hg-]([Cl])[Cl].[Pt+][c]1ccccc1P(=Nc1ccccc1)(c1ccccc1)c1ccccc1.[Pt+][c]1ccccc1P(=Nc1ccccc1)(c1ccccc1)c1ccccc1 |  | n-octanol/phosphate buffer | pH 7.00 |  | -0.26
Fc1ccc2nc3c4cccnc4c4ncccc4c3nc2c1.[Cl-].[Cl-].[Ru+2].c1ccncc1.c1ccncc1.c1ccncc1.c1ccncc1 |  | n-octanol/water |  |  | -1.07 ± 0.02
CC1(C)OB(c2ccc(COC(=O)N(Cc3cccc(CN4CCCCC4)c3)[c-]3cccc3)cc2)OC1(C)C.[Fe+2].c1cc[cH-]c1 | RP-TLC | MOPS/acetonitrile | pH 7.4 |  | > 6.26
CC1COC2=C1C(=O)C(=O)c1c2ccc2c1C(OC(=O)CNC(=O)C(N)CO)CCC2(C)C (mixture of isomers) |  | n-octanol/water |  | 25 °C | 1.14
CC[P+](CC)(CC)[Au-][S][C@@H]1O[C@H](COC(C)=O)[C@@H](OC(C)=O)[C@H](OC(C)=O)[C@H]1NC(C)=O |  | n-octanol/water |  |  | 0.26
COCCOCCOCCOc1ccc(/C=C/C2=[N+]3C(=C(c4cc(OC)cc(OC)c4)c4c(C)c(I)c(/C=C/c5ccc(OCCOCCOCCOC)cc5)n4[B-]3(F)F)C(C)=C2I)cc1 |  | octanol/HEPES buffer | pH 7.4 | room temperature | 0.89
CC1COC2=C1C(=O)C(=O)c1c2ccc2c1C(OC(=O)CNC(=O)C(N)CCC(=O)O)CCC2(C)C (mixture of isomers) |  | n-octanol/water |  | 25 °C | 2.88
O=C([O-])CN(CCN(CC(=O)[O-])Cc1cc(CCC(=O)NCCCCCC(=O)NCCCC[C@H](NC(=O)N[C@@H](CCC(=O)O)C(=O)O)C(=O)O)ccc1[O-])Cc1cc(CCC(=O)O)ccc1[O-].[68Ga+3] |  | n-octanol/PBS | pH 7.4 |  | -3.89 ± 0.16

Excerpt of the above:
Structure (SMILES) | method | matrix | pH | temperature | logP
Fc1ccc2nc3c4cccnc4c4ncccc4c3nc2c1.[Cl-].[Cl-].[Ru+2].c1ccncc1.c1ccncc1.c1ccncc1.c1ccncc1 |  | n-octanol/water |  |  | -1.07 ± 0.02
